Measured values of several laboratories.
Lines come from different studies, so protocols differ. Several values in a cell are separate wells, animals, samples, runs or records. ± gives the spread as reported.
GRM4: Metabotropic glutamate receptor 4 (GRM4, Homo sapiens, UniProt Q14833)
E3 ubiquitin-protein ligase NEDD4: E3 ubiquitin-protein ligase NEDD4 (Homo sapiens, UniProt P46934)

By UniProt entry, the sequences of proteins in these tests, tags left out. Residues count along the entry.
UniProt Q14833, 33-912 limits assumed: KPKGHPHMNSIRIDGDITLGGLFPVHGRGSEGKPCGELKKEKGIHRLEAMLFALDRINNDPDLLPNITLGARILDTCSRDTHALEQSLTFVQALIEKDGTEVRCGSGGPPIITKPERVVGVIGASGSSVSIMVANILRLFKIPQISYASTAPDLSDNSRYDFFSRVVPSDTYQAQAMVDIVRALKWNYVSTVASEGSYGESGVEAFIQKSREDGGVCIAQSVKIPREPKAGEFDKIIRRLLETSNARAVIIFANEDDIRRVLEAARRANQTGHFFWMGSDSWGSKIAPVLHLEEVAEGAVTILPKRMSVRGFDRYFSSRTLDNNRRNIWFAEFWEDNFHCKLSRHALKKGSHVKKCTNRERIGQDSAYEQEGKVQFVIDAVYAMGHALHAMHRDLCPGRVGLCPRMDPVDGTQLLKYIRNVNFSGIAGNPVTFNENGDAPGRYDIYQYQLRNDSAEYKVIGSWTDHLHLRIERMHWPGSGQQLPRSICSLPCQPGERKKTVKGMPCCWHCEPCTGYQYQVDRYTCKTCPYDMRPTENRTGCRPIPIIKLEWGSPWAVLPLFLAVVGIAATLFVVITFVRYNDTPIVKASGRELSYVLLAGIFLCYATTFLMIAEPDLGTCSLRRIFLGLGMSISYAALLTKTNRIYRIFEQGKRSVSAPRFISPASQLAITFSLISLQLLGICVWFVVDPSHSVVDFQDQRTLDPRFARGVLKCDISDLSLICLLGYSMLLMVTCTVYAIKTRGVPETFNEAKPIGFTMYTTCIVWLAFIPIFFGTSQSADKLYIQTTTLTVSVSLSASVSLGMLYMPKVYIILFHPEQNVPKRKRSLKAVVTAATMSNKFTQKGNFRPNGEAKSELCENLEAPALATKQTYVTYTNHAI
UniProt P46934, whole entry, looked up: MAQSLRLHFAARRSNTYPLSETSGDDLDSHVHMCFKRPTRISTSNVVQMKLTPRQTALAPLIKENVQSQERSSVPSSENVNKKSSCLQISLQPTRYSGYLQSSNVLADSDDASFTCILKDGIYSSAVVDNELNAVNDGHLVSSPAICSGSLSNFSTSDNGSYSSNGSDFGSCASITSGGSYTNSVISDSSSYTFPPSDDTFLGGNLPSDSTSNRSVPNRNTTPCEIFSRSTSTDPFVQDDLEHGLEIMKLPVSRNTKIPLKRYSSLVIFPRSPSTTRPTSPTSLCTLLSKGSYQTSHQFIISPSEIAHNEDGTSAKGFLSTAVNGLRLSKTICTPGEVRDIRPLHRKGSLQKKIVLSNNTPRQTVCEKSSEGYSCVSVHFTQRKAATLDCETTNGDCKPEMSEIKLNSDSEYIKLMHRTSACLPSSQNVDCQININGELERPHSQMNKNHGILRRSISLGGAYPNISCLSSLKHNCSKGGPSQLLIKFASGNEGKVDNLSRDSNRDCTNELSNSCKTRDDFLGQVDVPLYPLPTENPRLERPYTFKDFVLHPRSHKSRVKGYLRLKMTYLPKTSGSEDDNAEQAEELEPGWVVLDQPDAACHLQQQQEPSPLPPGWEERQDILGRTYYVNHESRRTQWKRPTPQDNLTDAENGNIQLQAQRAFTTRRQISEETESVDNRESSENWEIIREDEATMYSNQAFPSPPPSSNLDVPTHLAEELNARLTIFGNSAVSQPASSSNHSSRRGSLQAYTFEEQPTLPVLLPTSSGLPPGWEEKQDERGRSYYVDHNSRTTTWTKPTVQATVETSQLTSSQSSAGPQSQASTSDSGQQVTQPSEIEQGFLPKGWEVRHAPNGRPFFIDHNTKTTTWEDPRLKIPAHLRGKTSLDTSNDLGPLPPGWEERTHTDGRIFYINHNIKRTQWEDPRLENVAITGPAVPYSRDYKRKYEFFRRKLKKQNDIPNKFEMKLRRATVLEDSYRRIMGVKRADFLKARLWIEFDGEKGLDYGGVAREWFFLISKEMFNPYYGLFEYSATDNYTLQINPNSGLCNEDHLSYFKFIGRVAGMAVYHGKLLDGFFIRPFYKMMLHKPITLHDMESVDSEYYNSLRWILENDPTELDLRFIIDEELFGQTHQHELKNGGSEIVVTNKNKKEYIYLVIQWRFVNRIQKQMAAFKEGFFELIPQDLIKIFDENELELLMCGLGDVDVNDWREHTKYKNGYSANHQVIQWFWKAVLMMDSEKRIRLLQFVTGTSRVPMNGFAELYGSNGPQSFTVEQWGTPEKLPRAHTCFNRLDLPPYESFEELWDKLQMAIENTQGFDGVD
UniProt P45983, 1-384 isoform 3: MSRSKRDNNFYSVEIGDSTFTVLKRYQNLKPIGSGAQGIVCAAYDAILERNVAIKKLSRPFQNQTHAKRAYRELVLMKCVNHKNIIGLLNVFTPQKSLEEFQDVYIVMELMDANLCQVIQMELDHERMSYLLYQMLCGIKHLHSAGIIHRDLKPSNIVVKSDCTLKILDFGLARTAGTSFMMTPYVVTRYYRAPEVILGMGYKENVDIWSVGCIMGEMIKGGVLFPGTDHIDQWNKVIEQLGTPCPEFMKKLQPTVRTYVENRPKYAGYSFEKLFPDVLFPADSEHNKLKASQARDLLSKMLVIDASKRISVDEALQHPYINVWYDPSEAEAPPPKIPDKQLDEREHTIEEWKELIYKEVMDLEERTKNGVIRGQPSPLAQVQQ
UniProt P31424, 21-1203 limits assumed: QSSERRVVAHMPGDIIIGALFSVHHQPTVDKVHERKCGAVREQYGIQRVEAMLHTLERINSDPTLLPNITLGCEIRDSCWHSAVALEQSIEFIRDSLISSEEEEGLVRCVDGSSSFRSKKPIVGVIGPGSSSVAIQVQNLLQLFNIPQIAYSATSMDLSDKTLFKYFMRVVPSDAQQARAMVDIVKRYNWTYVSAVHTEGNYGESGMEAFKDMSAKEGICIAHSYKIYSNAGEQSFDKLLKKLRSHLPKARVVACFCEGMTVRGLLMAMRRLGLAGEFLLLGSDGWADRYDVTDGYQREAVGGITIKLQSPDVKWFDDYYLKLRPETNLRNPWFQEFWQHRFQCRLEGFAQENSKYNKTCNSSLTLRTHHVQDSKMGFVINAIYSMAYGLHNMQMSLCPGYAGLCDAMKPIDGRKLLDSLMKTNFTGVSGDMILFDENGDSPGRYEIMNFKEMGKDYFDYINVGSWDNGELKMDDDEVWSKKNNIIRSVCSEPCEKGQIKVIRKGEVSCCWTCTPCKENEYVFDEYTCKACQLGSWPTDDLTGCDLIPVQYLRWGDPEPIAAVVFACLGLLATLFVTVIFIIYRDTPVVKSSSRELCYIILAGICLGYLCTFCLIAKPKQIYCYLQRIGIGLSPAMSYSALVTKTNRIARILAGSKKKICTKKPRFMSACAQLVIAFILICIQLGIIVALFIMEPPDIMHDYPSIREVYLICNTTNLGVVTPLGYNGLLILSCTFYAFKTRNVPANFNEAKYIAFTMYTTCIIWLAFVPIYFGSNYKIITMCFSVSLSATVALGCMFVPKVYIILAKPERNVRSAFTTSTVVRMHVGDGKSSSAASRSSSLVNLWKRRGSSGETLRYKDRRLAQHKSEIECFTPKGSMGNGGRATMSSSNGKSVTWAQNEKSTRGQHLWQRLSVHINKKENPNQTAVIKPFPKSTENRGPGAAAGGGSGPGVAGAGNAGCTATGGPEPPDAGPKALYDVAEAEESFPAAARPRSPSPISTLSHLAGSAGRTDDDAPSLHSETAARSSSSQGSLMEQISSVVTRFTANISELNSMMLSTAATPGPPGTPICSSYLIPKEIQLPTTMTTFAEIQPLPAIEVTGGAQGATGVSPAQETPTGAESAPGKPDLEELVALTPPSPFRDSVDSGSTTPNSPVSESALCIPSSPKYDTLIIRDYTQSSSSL
UniProt P07900, 1-236 limits assumed: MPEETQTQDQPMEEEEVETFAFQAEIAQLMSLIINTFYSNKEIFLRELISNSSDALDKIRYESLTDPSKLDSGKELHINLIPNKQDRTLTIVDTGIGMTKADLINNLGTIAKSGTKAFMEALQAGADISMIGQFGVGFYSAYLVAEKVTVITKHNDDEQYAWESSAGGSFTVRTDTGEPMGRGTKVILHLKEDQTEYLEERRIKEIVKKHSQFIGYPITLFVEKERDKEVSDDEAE
UniProt P11413, whole entry R459L: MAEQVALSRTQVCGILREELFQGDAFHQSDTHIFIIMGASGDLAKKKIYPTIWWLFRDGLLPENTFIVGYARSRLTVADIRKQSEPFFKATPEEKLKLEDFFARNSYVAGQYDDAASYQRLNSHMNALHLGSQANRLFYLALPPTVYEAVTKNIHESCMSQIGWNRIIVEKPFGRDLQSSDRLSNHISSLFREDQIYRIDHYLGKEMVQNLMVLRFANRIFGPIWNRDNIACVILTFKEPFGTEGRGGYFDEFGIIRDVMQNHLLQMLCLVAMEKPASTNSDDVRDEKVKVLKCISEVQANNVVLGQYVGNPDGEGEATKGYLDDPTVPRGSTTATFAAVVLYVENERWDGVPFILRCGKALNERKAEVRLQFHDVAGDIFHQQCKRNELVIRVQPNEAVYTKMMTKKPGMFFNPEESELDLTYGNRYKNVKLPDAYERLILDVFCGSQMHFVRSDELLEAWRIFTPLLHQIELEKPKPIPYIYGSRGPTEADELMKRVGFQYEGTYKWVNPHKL
UniProt Q99797, 36-713 limits assumed: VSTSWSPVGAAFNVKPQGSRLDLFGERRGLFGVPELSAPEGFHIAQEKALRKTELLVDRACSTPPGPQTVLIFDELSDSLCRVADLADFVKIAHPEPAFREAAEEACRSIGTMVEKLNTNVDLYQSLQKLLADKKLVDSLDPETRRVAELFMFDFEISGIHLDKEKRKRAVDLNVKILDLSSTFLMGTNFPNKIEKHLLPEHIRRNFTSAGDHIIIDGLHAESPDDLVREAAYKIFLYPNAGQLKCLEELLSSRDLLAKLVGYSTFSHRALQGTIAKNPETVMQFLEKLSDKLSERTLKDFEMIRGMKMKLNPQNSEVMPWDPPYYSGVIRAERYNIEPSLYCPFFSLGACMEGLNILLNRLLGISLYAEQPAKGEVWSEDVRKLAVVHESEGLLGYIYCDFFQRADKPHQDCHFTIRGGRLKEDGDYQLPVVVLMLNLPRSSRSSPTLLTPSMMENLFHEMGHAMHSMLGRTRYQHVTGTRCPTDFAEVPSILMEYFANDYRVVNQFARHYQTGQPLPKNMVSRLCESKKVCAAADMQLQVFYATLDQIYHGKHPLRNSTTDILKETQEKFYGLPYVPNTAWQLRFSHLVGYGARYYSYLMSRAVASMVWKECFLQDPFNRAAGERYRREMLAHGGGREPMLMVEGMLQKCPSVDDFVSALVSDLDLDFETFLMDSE
UniProt P43220, whole entry, looked up: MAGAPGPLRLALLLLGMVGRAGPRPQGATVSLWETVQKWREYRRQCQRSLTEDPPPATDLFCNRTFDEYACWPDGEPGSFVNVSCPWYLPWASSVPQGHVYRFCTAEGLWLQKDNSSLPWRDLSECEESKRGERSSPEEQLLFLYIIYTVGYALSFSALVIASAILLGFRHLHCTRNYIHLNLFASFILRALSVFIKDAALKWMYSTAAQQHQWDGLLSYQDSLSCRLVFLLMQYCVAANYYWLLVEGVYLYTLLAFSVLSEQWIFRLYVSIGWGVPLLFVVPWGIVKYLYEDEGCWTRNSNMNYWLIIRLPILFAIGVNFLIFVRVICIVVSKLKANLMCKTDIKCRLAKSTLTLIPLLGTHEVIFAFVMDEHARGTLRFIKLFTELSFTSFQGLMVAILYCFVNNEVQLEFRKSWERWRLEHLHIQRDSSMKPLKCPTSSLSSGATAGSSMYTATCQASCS
UniProt O60502, whole entry: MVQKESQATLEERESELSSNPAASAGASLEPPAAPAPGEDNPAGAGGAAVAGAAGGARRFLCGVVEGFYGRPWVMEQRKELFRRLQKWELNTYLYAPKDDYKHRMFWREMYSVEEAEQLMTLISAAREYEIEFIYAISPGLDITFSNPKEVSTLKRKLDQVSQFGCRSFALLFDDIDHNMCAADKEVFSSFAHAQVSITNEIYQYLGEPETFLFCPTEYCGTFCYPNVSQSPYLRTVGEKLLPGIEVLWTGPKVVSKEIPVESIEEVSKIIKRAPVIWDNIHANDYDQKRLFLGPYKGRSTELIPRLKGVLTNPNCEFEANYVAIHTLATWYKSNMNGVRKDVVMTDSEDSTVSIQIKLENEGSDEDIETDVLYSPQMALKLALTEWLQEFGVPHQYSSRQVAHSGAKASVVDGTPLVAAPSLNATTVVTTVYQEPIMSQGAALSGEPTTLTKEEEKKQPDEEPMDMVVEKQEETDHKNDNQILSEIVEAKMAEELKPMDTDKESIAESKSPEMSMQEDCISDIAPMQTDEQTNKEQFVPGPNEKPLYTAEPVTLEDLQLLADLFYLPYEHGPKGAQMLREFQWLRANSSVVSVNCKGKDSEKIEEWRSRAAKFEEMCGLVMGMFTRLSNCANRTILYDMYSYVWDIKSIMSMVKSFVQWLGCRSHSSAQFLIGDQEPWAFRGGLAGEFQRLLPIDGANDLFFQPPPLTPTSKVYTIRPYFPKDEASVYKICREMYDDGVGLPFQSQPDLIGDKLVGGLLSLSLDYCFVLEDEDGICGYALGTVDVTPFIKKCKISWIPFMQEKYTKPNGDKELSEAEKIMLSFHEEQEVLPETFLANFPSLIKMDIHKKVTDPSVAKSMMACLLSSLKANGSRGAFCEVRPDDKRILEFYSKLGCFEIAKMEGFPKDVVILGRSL

The response of `O=C(Nc1ccccc1F)C12CC1/C(=N\O)c1ccccc1O2` (centres unmarked) is reported as 122 ± 4.3% (GRM4; positive allosteric modulator, calcium mobilization; CHO expressing Gqi5; concentration not given, together with: glutamate EC20; reference: glutamate 1 mM).
The remaining activity of `COC(=O)[C@@]1(C)C=C(C(=O)Nc2cccc(C(=O)NC34CC(Nc5nccc(-c6cccnc6)n5)(C3)C4)c2)C(=O)CC1` is reported as 0.542 (MAPK8 (Homo sapiens, UniProt P45983); kinase activity, inhibitor; 0.02032 µM, unit not given, together with: 10 mM GSH; reference: DMSO).
The maximal response of `N#Cc1cnc(Nc2nc3ccccc3o2)nc1-c1ccc(Cl)cc1Cl` is reported as 3 ± 0.4% (Grm5 (Rattus norvegicus, UniProt P31424); calcium mobilization, negative allosteric modulator; together with: glutamate EC80; reference: glutamate maximum).
The binding stoichiometry of `C/C=C/Cn1c(Cc2cc(OC)c(OC)c(OC)c2)nc2c(N)ncnc21` is reported as 1.03 ± 0.18 (Heat shock protein HSP 90-alpha, N-terminal domain (HSP90AA1, Homo sapiens, UniProt P07900); isothermal titration calorimetry, one-site model; concentration not given, 298 K, N-terminal domain).
For `c1ccc2c(CCNCCSSCCNCCc3c[nH]c4ccccc34)c[nH]c2c1`, the maximal activation was ~1.6 fold (G6PD (Homo sapiens, UniProt P11413, R459L); enzyme activity, activator; Canton mutant; reference: no compound).
`CSCC[C@H](NC(=O)[C@H](CC(C)C)NC(=O)[C@H](CC(N)=O)NC(=O)c1ccccc1N)C(=O)N[C@@H](CCCCN)C(=O)N[C@@H](CCCCN)C(=O)N[C@@H](CO)C(=O)N[C@H](C(=O)N[C@@H](CCCCNc1ccc([N+](=O)[O-])cc1[N+](=O)[O-])C(N)=O)[C@@H](C)O` gave a kcat of 0.028 s⁻¹ (Mitochondrial intermediate peptidase (MIPEP, Homo sapiens, UniProt Q99797); substrate, FRET peptide hydrolysis).
`CCOC(=O)/C=C/CNCCCN1c2ccccc2CCc2ccc([N+](=O)[O-])cc21` — result for “ubiquitination TR-FRET signal AUC”: 76700 a.u. and 59900 a.u. and 61100 a.u. (E3 ubiquitin-protein ligase NEDD4; inhibitor, Ub-TR-FRET; 11.11 µM, 1 h preincubation, HECT domain, together with: ATP 2 mM; higher = more ubiquitination).
`CC(C)(Cn1cc(CNC(=O)Cc2ccccc2)nn1)c1c[nH]c2ccccc12` has an Emax of 99.8% (GLP1R (Homo sapiens, UniProt P43220); cAMP accumulation, positive allosteric modulator, HTRF; 0.6 µM, crude reaction product, together with: GLP-1(9-36) at EC20; reference: BETP).
For `CCOC(=O)/C=C/CNCCCCN1c2ccccc2CCc2ccc(Cl)cc21`, “ubiquitination TR-FRET signal AUC” read 88000 a.u. and 142000 a.u. and 94600 a.u. and 127000 a.u. and 93400 a.u. and 92600 a.u. (E3 ubiquitin-protein ligase NEDD4; inhibitor, Ub-TR-FRET; 0.04572 µM, 1 h preincubation, HECT domain, together with: ATP 2 mM; higher = more ubiquitination).
`COc1ccc(NC(=O)CN2CCCN(S(=O)(=O)c3ccc(C(C)=O)cc3)CC2)c(OC)c1` gave a maximal response of 42.9 ± 2.7% (GRM4; calcium mobilization, positive allosteric modulator; CHO cells with Gqi5; together with: glutamate; reference: PHCCC maximal response).
`CC(=O)Nc1ncc(CN2CC[C@H](Oc3cccc(F)n3)C[C@@H]2C)s1` [isotope labelled] has a Bmax of 16.5 ± 1 nM (Protein O-GlcNAcase (OGA, Homo sapiens, UniProt O60502); saturation binding; human cortex homogenate; radiolabelled compound).
